Published values collected from several papers.
Numbered parts are unrelated; each lists some results of a single study. Values joined by “and” are separate records of one study, mostly repeats; a detail may differ. pKd: −log10 of the molar value.
Sequence of UniProt Q99808 (whole entry, unmodified, looked up): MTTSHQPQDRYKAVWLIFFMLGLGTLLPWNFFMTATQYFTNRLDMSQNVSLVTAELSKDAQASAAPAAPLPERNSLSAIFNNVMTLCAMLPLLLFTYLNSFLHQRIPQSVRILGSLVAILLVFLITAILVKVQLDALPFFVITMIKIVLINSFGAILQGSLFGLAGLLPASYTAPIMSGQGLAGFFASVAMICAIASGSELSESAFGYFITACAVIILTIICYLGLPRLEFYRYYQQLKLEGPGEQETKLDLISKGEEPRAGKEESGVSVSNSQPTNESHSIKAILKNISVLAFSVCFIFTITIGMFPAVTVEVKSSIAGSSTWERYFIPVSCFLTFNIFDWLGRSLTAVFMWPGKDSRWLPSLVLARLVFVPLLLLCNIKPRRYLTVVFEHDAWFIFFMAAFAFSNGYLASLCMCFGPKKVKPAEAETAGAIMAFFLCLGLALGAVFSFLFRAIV
Sequence of UniProt Q96SW2 (whole entry, looked up): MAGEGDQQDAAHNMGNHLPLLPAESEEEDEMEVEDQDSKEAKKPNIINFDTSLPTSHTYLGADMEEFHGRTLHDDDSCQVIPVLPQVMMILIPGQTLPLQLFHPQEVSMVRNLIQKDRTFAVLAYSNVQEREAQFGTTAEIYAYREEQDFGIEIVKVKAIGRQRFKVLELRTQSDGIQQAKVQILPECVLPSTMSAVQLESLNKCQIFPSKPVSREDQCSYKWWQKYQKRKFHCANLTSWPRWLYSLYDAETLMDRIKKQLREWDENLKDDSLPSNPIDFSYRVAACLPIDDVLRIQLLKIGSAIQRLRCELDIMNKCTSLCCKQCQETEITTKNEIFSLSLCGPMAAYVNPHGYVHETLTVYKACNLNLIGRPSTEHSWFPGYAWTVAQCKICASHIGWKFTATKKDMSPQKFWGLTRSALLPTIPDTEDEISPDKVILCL
Sequence of UniProt Q9UKS7 (whole entry, looked up): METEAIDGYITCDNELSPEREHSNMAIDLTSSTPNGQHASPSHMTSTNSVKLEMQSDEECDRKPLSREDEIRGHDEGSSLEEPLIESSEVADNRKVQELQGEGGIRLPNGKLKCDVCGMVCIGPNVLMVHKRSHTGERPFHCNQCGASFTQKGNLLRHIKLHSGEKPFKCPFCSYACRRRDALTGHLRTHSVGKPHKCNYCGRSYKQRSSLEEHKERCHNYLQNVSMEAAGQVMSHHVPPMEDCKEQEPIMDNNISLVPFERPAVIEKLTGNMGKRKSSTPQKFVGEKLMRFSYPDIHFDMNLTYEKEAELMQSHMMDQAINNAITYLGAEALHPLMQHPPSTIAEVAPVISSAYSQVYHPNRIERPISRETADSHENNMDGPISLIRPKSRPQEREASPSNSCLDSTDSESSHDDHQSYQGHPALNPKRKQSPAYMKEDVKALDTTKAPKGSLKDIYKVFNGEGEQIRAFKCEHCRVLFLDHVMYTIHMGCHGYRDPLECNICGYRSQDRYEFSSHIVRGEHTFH

Study 1 — cell line: L444P/L444P Gaucher fibroblasts; technique: 4-MUG hydrolysis in lysate; tested at: 1 µM; time: 72 h; reference: vehicle; endpoint: enzyme activity
CCOc1ccc2nc(Sc3nc(Nc4ccc(OC)cc4)nc(N4CCOCC4)n3)sc2c1: 120%
CCOc1ccc2nc(Sc3nc(N4CCOCC4)nc(N4CCOCC4)n3)sc2c1: 102%
Ic1ccc(Nc2nc(NCCCN3CCOCC3)nc(N3CCOCC3)n2)cc1: 158%
COc1ccc(Nc2nc(NCCN3CCOCC3)nc(N3CCOCC3)n2)cc1: 98%
Ic1ccc(Nc2nc(NCCN3CCOCC3)nc(N3CCCCC3)n2)cc1: 100%
Ic1cccc(Nc2nc(NCCN3CCOCC3)nc(N3CCOCC3)n2)c1: 110%
Ic1ccc(Nc2nc(NCCN3CCOCC3)nc(NC3CCCCC3)n2)cc1: 95%
Ic1ccc(Nc2nc(NCCc3c[nH]c4ccccc34)nc(N3CCOCC3)n2)cc1: 175% and 181% and 184% and 193%

Study 2 — effect on: kinase activity; action: inhibitor; technique: ADP-Glo; time: 1 h; endpoint: inhibition
SMILES: Cc1cc(-c2cnc(N)c3c(-c4ccc5scnc5c4)csc23)n(C)n1
Target: Receptor-interacting serine/threonine-protein kinase 3 (RIPK3, Homo sapiens, UniProt Q9Y572)
Sequence of UniProt Q9Y572 (whole entry, looked up): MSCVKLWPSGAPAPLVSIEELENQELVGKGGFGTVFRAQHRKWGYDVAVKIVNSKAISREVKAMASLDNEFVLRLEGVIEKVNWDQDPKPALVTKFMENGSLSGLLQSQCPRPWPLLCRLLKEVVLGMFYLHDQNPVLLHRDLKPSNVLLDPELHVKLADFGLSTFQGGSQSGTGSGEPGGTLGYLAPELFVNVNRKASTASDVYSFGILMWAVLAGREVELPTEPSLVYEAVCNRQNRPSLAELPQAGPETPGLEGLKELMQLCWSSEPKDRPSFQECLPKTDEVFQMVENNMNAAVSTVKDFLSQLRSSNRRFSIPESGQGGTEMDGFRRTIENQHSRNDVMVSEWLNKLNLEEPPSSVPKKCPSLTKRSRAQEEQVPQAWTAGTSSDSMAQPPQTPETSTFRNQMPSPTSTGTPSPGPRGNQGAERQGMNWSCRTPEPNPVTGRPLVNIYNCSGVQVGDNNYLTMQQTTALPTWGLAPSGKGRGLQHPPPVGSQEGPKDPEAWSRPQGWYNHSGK
50 nM: 47.6%
100 nM: 66.3%
6.25 nM: 15%
0.781 nM: 22.4%
200 nM: 88.6%
25 nM: 32%
400 nM: 86.6%

Mixed results
COc1cc(C(=O)OCCCN2CCCN(CCCOC(=O)c3cc(OC)c(OC)c(OCc4ccc([N+](=O)[O-])cc4)c3)CC2)cc(OC)c1OC  pKd (Equilibrative nucleoside transporter 1 (SLC29A1, Homo sapiens, UniProt Q99808, del243-274/L168F/N288K/P175A); binding, scintillation proximity; together with: [3H]NBMPR): 8.21 and ~8.22
FC(F)(F)c1ccc(C2=NOC3(NC(c4ccccc4)=NO3)N2c2ccccc2)cc1 (stereo not shown)  growth inhibition (Plasmodium falciparum; SYBR Gold; SB1-A6; concentration not given, 72 h, highest tested concentration): 50%
Cn1cc(-c2cccc(CN3CCC4(CC3)COc3c4ccc4c3CN(C3CCC(=O)NC3=O)C4=O)c2)cn1 (stereo not shown)  protein remaining (CRBN/Zinc finger protein Helios (Homo sapiens, UniProt Q96SW2+Q9UKS7); degrader, HiBiT; HEK293; 0.01694 nM): 112%
C=CCN1C(=O)C(O)(C(=O)O)Oc2cc(F)ccc21 (stereo not shown)  inhibition (Arabidopsis thaliana; hypocotyl length; Col-0, seedlings; 12.5 µg/mL): 13.1%

Excerpt of the above (study 1):
COc1ccc(Nc2nc(NCCN3CCOCC3)nc(N3CCOCC3)n2)cc1: 98%
Ic1ccc(Nc2nc(NCCN3CCOCC3)nc(N3CCCCC3)n2)cc1: 100%
Ic1cccc(Nc2nc(NCCN3CCOCC3)nc(N3CCOCC3)n2)c1: 110%
